# Measurements collected from several papers.
# Every numbered part comes from another study and shows a few of its results, in no order.

# Set 1 — technique: RNA Bind-n-Seq; form: RNA; sample: in vitro; concentration: 365 nM; reference: no-protein control; reading: higher = stronger binding
# Target: RNA binding protein fox-1 homolog 2, RRM domain, GST-SBP tag (RBFOX2, Homo sapiens, UniProt O43251-10, residues 100-194)
# Notes: natural RNA segment, single round, ends assumed
# Constant ends, left off below: GGGAGUUCUACAGUCCGACGAUC … UGGAAUUCUCGGGUGCCAA
# Target sequence (chain): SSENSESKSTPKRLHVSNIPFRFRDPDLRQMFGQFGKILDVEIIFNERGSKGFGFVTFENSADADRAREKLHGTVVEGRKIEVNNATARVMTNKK
Sequence,RBNS enrichment (R)
AGUCUUACUUUAUCUUACUAUACUUCACAAAGGUUCUAAAAUGUGAAGAGUUUACUUGGAUUGCAGUAGCCCAUUGGUUGUUCAUAUAUUUAAAUAAAAUGGUCUACAAA,0.583
ACGUGCUAGAAACCGAUGACUUAUUAAUCUCUAAUUUUUUGGCGCCUCUUUCAUUGAAUGAGAAUUGCUUUCGUAUAGUUCACAUUAGAAAAAUGCCUAAUAUACUAAAG,0.475
CAGGCUGUGUCCGAGCUGUGUCACAUGCAGCUCUACCCACGCUUUUAAACUCAGGAAUGCACACCUAACUUGUGAAGCAGUAUUAAUGGAUCUGAAAGCAACAAUCGCCA,0.479
UAUUAUGGGGACACAGGAAAGACCUCAGCCUCAGUUGUAAACCUGCUCUUUGUCUGCUCAAAGGAAACUUGAAAUAUCUGAGUAAAAGUCAAAGAAACCCAGCUAAGUAA,0.325
AAAACAUACUUAUCCUAAAGAGAUGGUGAGAUAUAACAUGCCUUAAAUUAUAUUAUAGAAUUUAAAUAACUAGCUUUCACAAUCAGUUUGUGUGUAAAAUGUCAUUUAAA,0.621
CAUUAUUACACACAGGAGAGCCAUUAUCAAAUGUUUUACAGAACAGCAGCGUUAGAGAGUGGGUUUGGUGGGUUGUGGAUAACCAAGAUGGCGUGAAGUAAUGGCAGUAG,1.15
AGAAAGAAAGAAAGAAAGACAGCAAAGCCUGAAUUCUUUUUGAGAGAUGGAGAUGAGGUACAUCAGGGGACCUUAAGAUGCCUGAGCCCAUCUUUUAACUCUAACACAGG,0.636
AAGGGAUUAAUUUUCAGACCCCUUUAAAAGUGAGUGCCAUAAAGAGUCAAUAUAUAGUGUUGAAGUGGUAUUUCAGGCUAGGAAUUAUUCCCUUCUCUUGGAAUGUGAAG,0.627
AAAGUAUGCUCUAAGGAACAAUGUUUUAAUGAAAUCUUGGAUACAAAGUGGAAUAAAAGGUUUCUGAGCAUAAAGUAGCUCUUCAGUAGUUACAACCUAUUCUUUUGCAU,0.438
CUGACCCCUGCCACCCAGCAUAGACACACCUCACAGCUGCCCUGCCAUGCAGAGCCCUGGCCGCUGGAGACUCUUAAAGCCCCCACAGCCCUCCAGGUCCUCCAGCUCUG,0.327
UCUGCUAAAUUUCACUGAUUUUAAUCAUGCUGGAGACCUUAACUCCCAUCCUGAUACAUCCUGAAGUAACACUGUUUUAAACUUUCUUAGUGCUGGAGUAAAAGGUCAAG,0.338
CCUGCUGUAUUUGUUGUGUAACAUAAAUAAGCCUUCUGAGAAGCAGGGUGAAUAAAGUUUAGGGAGCUGGGACACCUGGUCCUGCUAGCUGGACCACUGGCUCAUCAUGC,0.331

# Set 2 — technique: RNA Bind-n-Seq; form: RNA; sample: in vitro; concentration: not given; reference: input RNA pool; reading: higher = stronger binding
# Target: RING finger protein unkempt homolog, zinc fingers 1-6, GST-SBP tag (UNK, Homo sapiens, UniProt Q9C0B0, residues 30-357)
# Chain of UniProt Q9C0B0 (30-357, looked up): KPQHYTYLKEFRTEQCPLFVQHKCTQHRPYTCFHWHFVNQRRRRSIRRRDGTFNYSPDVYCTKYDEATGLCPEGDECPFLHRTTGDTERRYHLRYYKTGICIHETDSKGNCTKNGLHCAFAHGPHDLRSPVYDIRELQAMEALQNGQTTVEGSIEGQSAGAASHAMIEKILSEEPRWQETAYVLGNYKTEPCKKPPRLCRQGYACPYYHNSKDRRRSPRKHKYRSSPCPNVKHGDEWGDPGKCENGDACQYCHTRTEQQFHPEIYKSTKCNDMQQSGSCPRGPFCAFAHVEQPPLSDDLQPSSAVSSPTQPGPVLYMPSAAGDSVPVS
# Notes: RNA with constant flanks, human-mouse chimeric sites, ends assumed
# Constant ends, left off below: GGGAGUUCUACAGUCCGACGAUC … CAACAGAGGAUUGAGCAUCA
Sequence,bound/input enrichment
CAGUCCCCGUGUCCCAGUGCAGGACGAUGUGAACAAAAACUCAAAGCGGACCCUCUAUUGUAGUUCUUUUUUUAAAUGUGCCAUUAUUAUUGUUUGUCUUUUUUUUUUUUUUUUUAAAGA,11.6 ratio
UAACCACAUCAAGAUGGUUGGGAAGCUGAAGCAGAACUUACUAUUGGCGUGUCUGGUGAUUAGUUCUGUGACCGUGUUUUACCUGGGCCAGCAUGCCAUGGAAUGCCAUCACCGAAUAGA,0.186 ratio
AACGUGGAACUAAGUUCCUUGGCCCGGCUUCCCAGCUUGAAUAAACUCCGGAAGUUGGAACUUAGUGAUAAUAUAAUUUCUGGAGGCUUGGAAGUCCUGGCAGAGAAAUGUCCAAAUCUU,1.47 ratio
AAGCAACGCAAACUUGAAACAAUUCGUUAUCUUGCAGCCUCAGUGUUCACUUGCUUGUGGCAAUAGCUGGGGUUUUAUAGGUUCUGGAAGGAGAACUGACGAUGAUGCUGCCGCUGCUGC,0.19 ratio
CAGCCUCAGAGCCCAGACUUCCUGGAUAUUACCAACCCUAAAGCGGUAUUAGAAAAUGCACUUAGGAACUUCGCCUGUCUGACGACUGGGGAUGUGAUUGCUAUCAACUACAAUGAGAAG,0.669 ratio
AAAGAGUGGAUAGAAUGUGCACACGGGAUCGGUGGGACCCGGGCGAAAAAGGAGUGCAAGAUAGAGUUCGAUGACUUCGAAGAGUGCUUGCUUCGGUACAAAACGAUGAGACGUGCACAU,0.218 ratio
CAGGGCAUCAUCUCUCGAGCUGUUAAACACCUGUUCAAGAGUAUUGAUGAGAAAAAGACCUCAGCGAUUAAAAACGGGCUGCCCCCUCCUGAAUUCAAAGUGAAUGCCCAAUUCUUAGAG,0.648 ratio
CACAGAGGAGAUCUGCUGUUCCUCACGAAUUUCCGGGAGGACCCCAUCAGAGCUGGUGAAAUAGUUGUUUUUAAAGUUGAAGGAAGAGACAUUCCAAUAGUUCACAGAGUAAUCAAGGUU,3.63 ratio
CACAGAGCAGCACCUACCUCCUCCUUCUUUCCACACCUGCAAACCCUUUUACUUGGGCUGAAUAUUUAGUGUAAUUACAUCUCAGCUUUGAGGGCUCCUGUGGCAAAUUCCCGGAUUAAA,0.61 ratio
GUGCCCUCCUUCUCGCUGCGGAGCCCGAGCUGGGAACCAUUCCGGGACGACUGGUACGCACACAGCCGCCUCUUCGAUCAAGCUUUCGGGGUGCCCCGGUUGCCCGAUGAGUGGUCGCAG,0.111 ratio
AGAGAUAAGACAUCCAGGAACAUGCGAGGGUCACGGAUGAAUGGGUUGCCUAGCCCCACUCACAGCGCCCACUGUAGCUUCUACCGAACCAGAACCUUGCAGGCACUAAGUAAUGAGAAG,0.236 ratio

# Set 3 — technique: universal PBM; form: double-stranded DNA, one strand shown; sample: in vitro; concentration: 600 nM; reading: higher = stronger binding
# Target: Sal-like protein 4, full length isoform A (SALL4, Homo sapiens, UniProt Q9UJQ4, residues 1-1053)
# Chain of UniProt Q9UJQ4 (whole entry, looked up): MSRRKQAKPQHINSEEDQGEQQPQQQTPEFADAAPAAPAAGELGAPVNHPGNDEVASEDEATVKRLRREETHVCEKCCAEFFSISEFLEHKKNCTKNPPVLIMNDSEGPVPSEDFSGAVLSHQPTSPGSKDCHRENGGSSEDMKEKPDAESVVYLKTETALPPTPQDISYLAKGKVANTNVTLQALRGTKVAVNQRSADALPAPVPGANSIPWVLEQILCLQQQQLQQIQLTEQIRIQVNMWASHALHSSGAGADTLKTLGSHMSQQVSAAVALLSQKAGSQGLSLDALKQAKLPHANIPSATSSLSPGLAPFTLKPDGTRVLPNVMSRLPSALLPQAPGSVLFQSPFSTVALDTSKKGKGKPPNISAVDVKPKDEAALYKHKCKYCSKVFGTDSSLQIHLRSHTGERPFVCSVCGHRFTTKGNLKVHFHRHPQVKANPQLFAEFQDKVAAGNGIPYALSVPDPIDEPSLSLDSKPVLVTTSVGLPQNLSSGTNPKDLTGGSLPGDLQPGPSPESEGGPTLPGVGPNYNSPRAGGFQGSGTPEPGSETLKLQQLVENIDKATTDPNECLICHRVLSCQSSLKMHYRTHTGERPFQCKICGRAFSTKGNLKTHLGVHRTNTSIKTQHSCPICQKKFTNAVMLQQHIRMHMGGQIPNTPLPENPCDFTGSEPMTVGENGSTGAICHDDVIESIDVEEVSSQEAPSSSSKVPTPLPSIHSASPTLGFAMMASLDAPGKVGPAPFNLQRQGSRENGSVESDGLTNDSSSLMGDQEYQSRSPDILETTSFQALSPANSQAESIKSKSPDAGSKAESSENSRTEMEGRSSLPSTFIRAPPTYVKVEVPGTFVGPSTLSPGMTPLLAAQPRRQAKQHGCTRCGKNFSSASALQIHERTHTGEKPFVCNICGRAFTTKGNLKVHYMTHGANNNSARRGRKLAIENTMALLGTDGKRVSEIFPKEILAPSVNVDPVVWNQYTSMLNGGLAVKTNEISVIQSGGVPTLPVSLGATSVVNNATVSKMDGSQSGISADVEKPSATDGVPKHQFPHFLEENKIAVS
# Notes: 8-mer, flanks averaged, mean of replicates
Sequence,E-score
AGATATCC,0.135
AGACAGTA,0.164
AAGAATAC,0.236
ACTCTCGC,-0.16
TCTAATCA,0.188
CACGGCTG,-0.281
GTTCAACA,0.0528
CTGCTTCA,-0.155
ATAAAGGG,0.146
AAGCGTAT,-0.00751
AACACAGG,-0.148
AGTTATCA,0.273
ACCGCATA,0.163
CTCGTCGC,-0.146
AAAGCATG,0.0716
AAGAGGAG,-0.163

# Set 4 — technique: RNAcompete; form: RNA; sample: in vitro; concentration: 20 nM; notes: 7-mer, probes averaged, single round; reference: mean of 7-mers; reading: higher = stronger binding
# Target: PABPC1L2, full length, GST fusion (mouse, UniProt A0ABA7IW68)
# Residues (chain): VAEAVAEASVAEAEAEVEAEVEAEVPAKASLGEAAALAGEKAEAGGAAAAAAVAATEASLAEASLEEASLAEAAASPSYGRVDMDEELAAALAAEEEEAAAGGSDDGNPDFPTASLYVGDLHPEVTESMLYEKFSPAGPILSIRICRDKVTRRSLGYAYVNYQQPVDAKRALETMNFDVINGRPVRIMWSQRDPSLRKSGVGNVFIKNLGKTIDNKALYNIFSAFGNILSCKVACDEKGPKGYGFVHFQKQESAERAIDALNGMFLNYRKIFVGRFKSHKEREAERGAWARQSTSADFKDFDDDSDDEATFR
Sequence,7-mer Z-score
AACCAUG,-0.00652
CUAUAUU,-0.132
CAUAGAC,-0.157
CGCUCUC,-0.325
GUAUUCG,-0.13
AUGUGUC,-0.364
GUCAGGG,0.164
GCUGUGG,-0.0464
GCCGUCC,-0.449
GGUUAAU,-0.117
CUAACAC,-0.19
UCACAUA,-0.11
ACCCCUA,-0.338
UACUCUG,-0.325
CUACGAA,-0.113
UAGCAUU,-0.05
CCCGCCA,-0.431
UCCAUUC,-0.278

# Set 5 — technique: protein binding microarray; form: double-stranded DNA, one strand shown; sample: in vitro; concentration: not given; reference: not given; reading: higher = stronger binding
# Target: Histone acetyltransferase KAT6A, winged helix 1, GST fusion (KAT6A, Homo sapiens, UniProt Q92794, residues 1-85)
# Notes: 8-mer, flanks averaged, mean of 2 arrays, mostly near background
# Construct (chain): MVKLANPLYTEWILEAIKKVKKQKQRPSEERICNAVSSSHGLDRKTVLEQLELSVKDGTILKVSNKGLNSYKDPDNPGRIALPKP
Sequence,E-score
CTAAATAG,-0.135
ACTCGTCA,-0.0502
CCCGCCCG,0.434
AGCCACGG,0.225
ACAACCTC,-0.056
CAGCTAGC,0.0152
AAGTTGAT,-0.172
AGCATTCC,0.0478
GACCAGAA,-0.228
ACCTCGCG,0.258
ATCATGGA,-0.218
AGCCAACA,-0.0353
GCAATTGC,0.189
CCCCCCAG,-0.15
TAGCATAA,-0.0909
CGTTATAA,0.123
AGTAAAAT,-0.157
CCCTGGCC,0.0449
AACCAGCT,-0.254
AAACCCAA,-0.259

# Set 6 — technique: EMSA with sequencing; form: double-stranded DNA, one strand shown; sample: in vitro; concentration: 10 and 20 nM; reference: negative control set to 0; reading: higher = stronger binding
# Target: Hepatocyte nuclear factor 3-alpha (Foxa1, Mus musculus, UniProt P35582, residues 1-468, full length assumed)
# Chain of UniProt P35582 (whole entry, looked up): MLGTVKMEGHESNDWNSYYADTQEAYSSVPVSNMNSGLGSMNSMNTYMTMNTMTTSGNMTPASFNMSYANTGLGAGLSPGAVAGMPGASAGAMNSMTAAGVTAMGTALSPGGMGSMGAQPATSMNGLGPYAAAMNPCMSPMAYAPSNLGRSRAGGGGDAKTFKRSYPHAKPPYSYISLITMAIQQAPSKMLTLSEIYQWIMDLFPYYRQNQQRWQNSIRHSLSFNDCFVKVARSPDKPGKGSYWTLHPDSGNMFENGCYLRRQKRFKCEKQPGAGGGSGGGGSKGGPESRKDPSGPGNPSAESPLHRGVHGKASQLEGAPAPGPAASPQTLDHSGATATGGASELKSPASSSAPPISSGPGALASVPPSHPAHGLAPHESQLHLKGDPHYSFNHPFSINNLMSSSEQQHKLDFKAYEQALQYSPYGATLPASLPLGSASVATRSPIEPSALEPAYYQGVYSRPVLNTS
# Notes: whole designed probe, mean of two concentrations, ends assumed
# Constant ends, left off below: GTGAGCGGTGCCCATTGATGGGGAAC … TTTCACTGGGATCGTGGGGAC
Sequence,normalised bound fraction
ATCTTCCCCCTCTTCCTTGCCCCACCAGCTCACCTTCCCGGGTTATTTGCACAAAGGAAAATAAATAAAGCCGGCATTCGTTAACCCTCTTCTGGCGCAAACTGCTGTTTGCTCTGGATCTAACATGGTCCTTTGGCGACGCCAGGCTCCGGGAGAGCAAAGCACCGTGTCAGGGCCATGATCCGGGCTCGCC,0.365 ratio
GCTTACAGTTTCTCAGGGGCCTGGCACTTTGCTCTGTTGTCCCAGTGACTCACATGATAATTTTCCAGGCCTTCAAACTAGGTCAACAGCTTTGTTTGCCCAGAGAGCTCCCCTGGGAGGCCATTCTAAGGAAAGCAGACTGAAAGGGGATGTTTGGCCAGGTGATTCTTTTTGCTGGCTTTTAGCCTGAGGA,0.182 ratio
ATGAAGGGCTGCCAGTGTAATTTGAACCTCAAATAAACAACAGATAAAACTGTAGTATAAGTATGTCCCATATATTGCACAACACGATCTTTTTGTTTGCCTAATCTGGCAAAGATATTGACTTAACACACACTAATCTGTTGACAGGTAGGTGAAATATTTGAACTTCTACGTTGCTTCTCTAATCCTGTCC,0.391 ratio
TCAGAACACCTCTCTGACAAATCAATAGAAACAGAAACTCTTTGTATTGATGGATTTTCCAAGGTTCATATTATCAGTAAATTCAAAACAAAGTAAACAGAAAAAAGAACTAGGTCAACATTAGCGGTCAAGTAAGGTTACATTTTATAAGCAATGCAATTATATTAATTTGTTTTTAAGCAAATAATAAACT,0.499 ratio
ATCTTCCCCCTCTTCCTTGCCCCACCAGCTCACCTTCCCGGGTTATTTGCAGATAGGAAATTAATATAAGCCGGCATTCGTTAACCCTCTTCTGGCGCAAACTGCTGTTTGCTCTGGATGAATCATGGTCCTTTGGCGACGCCAGGCTCCGGGAGAGCAAAGCACCGTGTCAGGGCCATGATCCGGGGTGGCC,0.167 ratio
AGTGCCAAGAACTGCCATTTACACTCGGAAGCGCTCCAGGGAAGGTTAATACTACTGTGATTAATACTGTTTACAGAGCCAATAAATTTTAGGTAAACACCCAAAGGAGAGTTAAAGAGTTGTCTCATCGGTCCCATAAAGGCTGGTAAAAGGGGCGGGGAATGGTTCCACGCCAACCCTGTCCGTCACCGCA,0.276 ratio
TTCCATCGTTTGCTTTTACTGTAAAGTAATATTAAGGAATTAGCCAACAGAAATTACTGAGTGACTGGTATTTACCTCTGATCCTTTGAGGACTAGATTGCATTTCAGCTCAGGTTTTCTGACTAAGGAGATAAAAACATCTCCTGGACTATTTATTTTTTTCCGTGACCTAACCCAAGGACTTTGCACTGGG,0.122 ratio
TCAGGTCAGAGCAGGTGACCAGGGGTGACTCAGGATGGAGCAGGTGACCAGAGGAATAGAGGTGAACTACTGATTAGAACTGGTGGAAAAGGTAGATTACTGAAACTAGAGGCGAGGAGAACGAGGAAGCTAGACTTTAGAGCGCAAAGAACCGAGCATACTGACATACTGATTCTTTGAAGAGAAATTTAGA,-0.0541 ratio

# Repeated from above (set 3):
Sequence,E-score
AGATATCC,0.135
AGACAGTA,0.164
AAGAATAC,0.236
ACTCTCGC,-0.16
TCTAATCA,0.188
CACGGCTG,-0.281
GTTCAACA,0.0528
CTGCTTCA,-0.155
ATAAAGGG,0.146
AAGCGTAT,-0.00751
AACACAGG,-0.148
AGTTATCA,0.273
ACCGCATA,0.163
CTCGTCGC,-0.146
